Assay results collected from several papers.
Every numbered part comes from another study and shows a few of its results, in no order. Substitutions count along the parent as printed.

Set 1
Target: RING finger protein unkempt homolog, zinc fingers 1-6, GST-SBP tag (UNK, Homo sapiens, UniProt Q9C0B0, residues 30-357)
Technique: RNA Bind-n-Seq
Molecule type: RNA
Sample: in vitro
Concentration: not given
Notes: RNA with constant flanks, human-mouse chimeric sites, ends assumed
Relative to: input RNA pool
Direction: higher = stronger binding
Construct (chain): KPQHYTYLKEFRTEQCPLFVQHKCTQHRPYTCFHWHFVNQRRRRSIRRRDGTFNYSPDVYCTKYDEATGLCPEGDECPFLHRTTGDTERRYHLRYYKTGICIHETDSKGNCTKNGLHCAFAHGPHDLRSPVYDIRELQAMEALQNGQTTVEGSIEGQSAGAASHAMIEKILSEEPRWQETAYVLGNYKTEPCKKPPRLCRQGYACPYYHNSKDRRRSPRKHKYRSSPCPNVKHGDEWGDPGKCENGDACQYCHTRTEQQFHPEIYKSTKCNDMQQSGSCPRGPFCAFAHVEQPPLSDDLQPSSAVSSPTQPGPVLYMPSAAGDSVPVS
Sequence | bound/input enrichment [ratio]
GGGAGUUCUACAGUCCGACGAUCUUGUCGAAGACUCAACGAAAGACUCCAACGGUUAUUCAUAAACAUUAUCAAAUUCAUCGGAUUCGACAUUUUUAUAUGAGAAAAGUCAAAUUUACUCAACAGAAUUACCAUGAUAGACUGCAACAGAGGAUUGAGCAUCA | 0.463
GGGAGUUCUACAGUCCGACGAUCUAAGUUAUUUUGUACAGCUUUGUAAAUUGUAUAGCUUUUUAUAUUGCCAUGUUUAUUUUGUUUGGGUAAUUUGGUUCAUUAAGUACAAAACCAAAUAAAUGAACAUCUUUUUCAGUAAUUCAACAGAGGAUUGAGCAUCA | 1.23
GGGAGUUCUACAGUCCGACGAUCAUGGAGAAGGAUUCUCUGCCCCGCUUUGUGCGCUCUGAGUUUUAUCAGGAGCUAAUCAAGUAGUCAUCUGGUCAGGCUUCCAAAAGUUGCCCUGUGAGUUGAGUUACAUAAUAACCCGCACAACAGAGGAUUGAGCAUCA | 0.153
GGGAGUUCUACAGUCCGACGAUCCUUAAUGAUAUUUUGAGUGAAUAAAUGAAGCUAAAAUUUUGCUUUCUGGUACAACACGCAUUAAUAAAAGGUUAAGUUUUGUUUUCCACUGAAGUACUAUUUAACAUCUCAGAAAAAAACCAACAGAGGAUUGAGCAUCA | 0.142
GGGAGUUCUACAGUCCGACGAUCAAAUCGUGUGUGUCCAAUAUUGAAAGUACUUUAUCUGCACUCCAGUAUGUAAGCAGCAUAGUAGUUUCUUUAGAGAAUAGGUCAGCCAUUGUAAAGUACAAUGCAAGCUUAGUCACUCCACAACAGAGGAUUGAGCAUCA | 1.95
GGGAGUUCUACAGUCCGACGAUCGCGGCAGAAUCAUGGUGGACAUAAUGCAGCUCCCCAAAGCGCGCGUCAACGCCAGCAUGCUAGCUCAGUAUAUCGACCGGCCCGUGUGCUUCGUGGGGAAGCUGGAAAAGAUUCAUCCCACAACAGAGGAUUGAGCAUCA | 0.0997
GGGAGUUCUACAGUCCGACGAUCGUAAUGGACGUCAACACUGCUCUACAAGAGGUUCUGAAGACCGCCCUCAUCCACGAUGGCCUAGCACGUGGCAUACGCGAAGCUGCCAAAGCCUUAGACAAGCGCCAAGCCCAUCUGUGUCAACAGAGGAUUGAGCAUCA | 0.27
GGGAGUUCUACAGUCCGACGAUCAAUGUUCUUAAUAUUUUUGAAUAAAUGAAGCUAAAAUGUCUGCUUUUGGUACAACACGCAUUAAUAAAAGGUUAAGUUUUGUUUUCCACUGAAGUACGUAAUACUUACUCAGAAAAAAACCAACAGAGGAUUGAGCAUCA | 0.353

Set 2
Target: CCND1, cyclin fold, Cln2 fusion (human)
Technique: yeast growth competition, sequencing
Sample: yeast
Notes: weak parent motif
Relative to: not given
Direction: higher = stronger binding
Parent: MASTL docking peptide (human); PMIAKNLMCELDE; partner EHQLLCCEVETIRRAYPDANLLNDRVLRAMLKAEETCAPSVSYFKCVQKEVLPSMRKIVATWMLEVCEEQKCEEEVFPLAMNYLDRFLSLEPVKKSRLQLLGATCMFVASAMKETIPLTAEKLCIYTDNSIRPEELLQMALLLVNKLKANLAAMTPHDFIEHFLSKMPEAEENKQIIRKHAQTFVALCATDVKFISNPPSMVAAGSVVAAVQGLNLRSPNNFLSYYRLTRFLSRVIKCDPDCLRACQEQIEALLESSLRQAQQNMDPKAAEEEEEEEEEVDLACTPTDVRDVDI
Substitution | normalised enrichment score
PMIAKNLGCELDE [M8G] | -0.064
PMIAKNLMCELRE [D12R] | -0.0421
PMIAKNLMCEQDE [L11Q] | 0.248
PMIAKNLMCELIE [D12I] | -0.44
PMIAKNLECELDE [M8E] | 0.0999
PMIAKNLMCEWDE [L11W] | 0.475
PMIAKHLMCELDE [N6H] | 0.22

Set 3
Target: Histone acetyltransferase KAT6A, winged helix 1, GST fusion (KAT6A, Homo sapiens, UniProt Q92794, residues 1-85)
Technique: protein binding microarray
Molecule type: double-stranded DNA, one strand shown
Sample: in vitro
Concentration: not given
Notes: 8-mer, flanks averaged, mean of 2 arrays, mostly near background
Relative to: not given
Direction: higher = stronger binding
Construct (chain): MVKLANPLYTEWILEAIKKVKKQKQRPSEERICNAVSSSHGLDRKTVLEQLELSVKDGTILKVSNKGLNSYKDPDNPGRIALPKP
Sequence | E-score
CATACTAA | -0.0901
CATTGCGC | 0.296
CACGGTGC | 0.123
ACTGTCCC | 0.0186
TACACGTA | -0.0259
ACTTAGTG | -0.248
ATGTTTAC | -0.06
AGTTTACG | 0.0666
CATGTTGC | -0.0148
CAGTACAG | -0.184
CCAAGCTA | -0.115
CTGTCAAG | -0.208
GTCTCGAA | -0.213

Mixed results
Molecule | target | assay | system | conditions | scale | measurement | result
PhoQ, residues 284 288 289 292 302 303 NLSRDF | PhoP, residues 12 14 15 18 19 QWHVF (Escherichia coli, UniProt P23836) | Sort-seq, refers to: YFP reporter | E. coli | PhoQ-PhoP variant library, with: 10 µM Mg2+ | relative to: high Mg2+ state, higher = stronger signaling | fold induction | 12.5

For quick reference, copied from above (set 3):
Sequence | E-score
AGTTTACG | 0.0666
CATGTTGC | -0.0148
CAGTACAG | -0.184
